{"data": "Experimental data pooled from the literature", "note": "Every numbered part comes from another study and shows a few of its results, in no order."}
{"data": "Sample 1", "target": "Prothrombin, mature alpha-thrombin (F2, Homo sapiens, UniProt P00734)", "technique": "aptamer microarray, sandwich", "molecule type": "DNA with 2'F-ANA", "matrix": "in vitro", "concentration": "200 nM", "notes": "whole 15-mer aptamer, many near background", "added": "Cy3 exosite-II aptamer, 400 nM", "direction": "higher = stronger binding", "strand": "GGTTGGTGTGGTTGG"}
{"Modification": "2'F-ANA at 2 5 9 10 14 15", "mean fluorescence intensity [a.u.]": 47.2}
{"Modification": "2'F-ANA at 1 2 5 6 9 11 12 14", "mean fluorescence intensity [a.u.]": 50.9}
{"Modification": "2'F-ANA at 6 7 10 12 14 15", "mean fluorescence intensity [a.u.]": 115}
{"Modification": "2'F-ANA at 1 2 3 4 5 6 8 12", "mean fluorescence intensity [a.u.]": 123}
{"Modification": "2'F-ANA at 3 4 5 7 9 11 12", "mean fluorescence intensity [a.u.]": 169}
{"Modification": "2'F-ANA at 3 4 9 11 14 15", "mean fluorescence intensity [a.u.]": 303}
{"Modification": "2'F-ANA at 1 4 6 10 15", "mean fluorescence intensity [a.u.]": 50.5}
{"Modification": "2'F-ANA at 1 3 4 6 7 8 10 12 14 15", "mean fluorescence intensity [a.u.]": 53.7}
{"Modification": "2'F-ANA at 3 4 5 6 8 9 11 12", "mean fluorescence intensity [a.u.]": 161}
{"Modification": "2'F-ANA at 1 4 8 9 10 11 12 15", "mean fluorescence intensity [a.u.]": 56.3}
{"Modification": "2'F-ANA at 1 5 7 8 9 11 12 13", "mean fluorescence intensity [a.u.]": 107}
{"Modification": "2'F-ANA at 3 5 8 9 10", "mean fluorescence intensity [a.u.]": 57.7}
{"Modification": "2'F-ANA at 3 5 8 10 11 12 14", "mean fluorescence intensity [a.u.]": 54.8}
{"Modification": "2'F-ANA at 2 4 5 9 10 12 14 15", "mean fluorescence intensity [a.u.]": 45.7}
{"Modification": "2'F-ANA at 2 3 5 7 8 9 10 12 13 14 15", "mean fluorescence intensity [a.u.]": 48.7}
{"Modification": "2'F-ANA at 1 4 6 7 8 11 13 15", "mean fluorescence intensity [a.u.]": 89}
{"Modification": "2'F-ANA at 4 5 6 9 11 12 13 15", "mean fluorescence intensity [a.u.]": 69.5}
{"Modification": "2'F-ANA at 1 3 4 9 12 13 14", "mean fluorescence intensity [a.u.]": 67.5}
{"Modification": "2'F-ANA at 1 2 3 4 8 9 11 12 13", "mean fluorescence intensity [a.u.]": 226}
{"Modification": "2'F-ANA at 1 3 4 9 14", "mean fluorescence intensity [a.u.]": 61.9}
{"Modification": "2'F-ANA at 4 6 8 10 12 15", "mean fluorescence intensity [a.u.]": 98.6}
{"Modification": "2'F-ANA at 2 3 5 6 8 11 12 14", "mean fluorescence intensity [a.u.]": 54.3}
{"Modification": "2'F-ANA at 2 4 5 6 9 15", "mean fluorescence intensity [a.u.]": 70.5}
{"Modification": "2'F-ANA at 2 5 6 7 11 12 13 14", "mean fluorescence intensity [a.u.]": 52.4}
{"data": "Sample 2", "target": "Sal-like protein 4, full length isoform A (SALL4, Homo sapiens, UniProt Q9UJQ4, residues 1-1053)", "technique": "universal PBM", "molecule type": "double-stranded DNA, one strand shown", "matrix": "in vitro", "concentration": "600 nM", "notes": "8-mer, flanks averaged, mean of replicates", "direction": "higher = stronger binding", "sequence of UniProt Q9UJQ4 (whole entry, looked up)": "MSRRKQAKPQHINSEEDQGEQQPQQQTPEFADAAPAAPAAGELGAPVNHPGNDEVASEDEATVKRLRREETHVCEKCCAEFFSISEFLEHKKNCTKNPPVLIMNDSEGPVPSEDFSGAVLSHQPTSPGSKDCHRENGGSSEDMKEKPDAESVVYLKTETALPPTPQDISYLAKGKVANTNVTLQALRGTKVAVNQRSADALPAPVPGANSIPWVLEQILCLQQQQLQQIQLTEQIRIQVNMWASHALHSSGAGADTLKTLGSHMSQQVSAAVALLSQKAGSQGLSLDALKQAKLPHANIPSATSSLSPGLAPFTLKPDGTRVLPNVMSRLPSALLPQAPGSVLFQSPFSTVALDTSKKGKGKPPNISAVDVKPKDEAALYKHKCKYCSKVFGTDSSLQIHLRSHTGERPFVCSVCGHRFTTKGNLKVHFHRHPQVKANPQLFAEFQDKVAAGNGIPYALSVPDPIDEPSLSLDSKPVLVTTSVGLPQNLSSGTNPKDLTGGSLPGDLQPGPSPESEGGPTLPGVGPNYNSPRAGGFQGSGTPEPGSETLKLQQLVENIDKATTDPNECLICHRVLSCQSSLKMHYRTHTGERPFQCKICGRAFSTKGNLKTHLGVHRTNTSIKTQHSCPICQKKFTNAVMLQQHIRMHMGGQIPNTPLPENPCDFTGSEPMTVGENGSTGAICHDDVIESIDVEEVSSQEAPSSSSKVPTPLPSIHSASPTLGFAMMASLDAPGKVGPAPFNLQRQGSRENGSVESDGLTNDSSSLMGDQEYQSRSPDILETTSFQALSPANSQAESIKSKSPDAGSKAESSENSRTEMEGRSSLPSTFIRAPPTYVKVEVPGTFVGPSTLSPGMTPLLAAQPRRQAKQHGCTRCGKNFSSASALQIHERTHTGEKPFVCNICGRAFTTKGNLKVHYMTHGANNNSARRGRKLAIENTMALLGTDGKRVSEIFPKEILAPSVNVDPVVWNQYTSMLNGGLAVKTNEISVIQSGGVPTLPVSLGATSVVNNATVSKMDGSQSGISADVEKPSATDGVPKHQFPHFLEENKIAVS"}
{"Strand": "TACCACTA", "E-score": 0.0729}
{"Strand": "CAGTGGCA", "E-score": -0.106}
{"Strand": "GAGATGAC", "E-score": -0.0725}
{"Strand": "CGAGTCAC", "E-score": -0.165}
{"Strand": "TCGTTTAA", "E-score": 0.14}
{"Strand": "GCCTTAGA", "E-score": -0.186}
{"Strand": "CAATGGTG", "E-score": -0.174}
{"Strand": "ATCAATAC", "E-score": 0.271}
{"Strand": "ATCCGTCC", "E-score": -0.0673}
{"Strand": "TGGACCCA", "E-score": -0.0751}
{"Strand": "GTGCGTCA", "E-score": -0.226}
{"Strand": "ACACTACG", "E-score": -0.00131}
{"Strand": "GAGTTCGA", "E-score": 0.00365}
{"Strand": "ATGTCCAC", "E-score": -0.00408}
{"Strand": "GCTTCTCA", "E-score": -0.122}
{"Strand": "AACCAGAG", "E-score": -0.075}
{"data": "Sample 3", "target": "RNA binding protein fox-1 homolog 2, RRM domain, GST-SBP tag (RBFOX2, Homo sapiens, UniProt O43251-10, residues 100-194)", "technique": "RNA Bind-n-Seq", "molecule type": "RNA", "matrix": "in vitro", "concentration": "365 nM", "notes": "natural RNA segment, single round, ends assumed", "baseline": "no-protein control", "direction": "higher = stronger binding", "all sequences stand within": "GGGAGUUCUACAGUCCGACGAUC … UGGAAUUCUCGGGUGCCAA", "Construct (chain)": "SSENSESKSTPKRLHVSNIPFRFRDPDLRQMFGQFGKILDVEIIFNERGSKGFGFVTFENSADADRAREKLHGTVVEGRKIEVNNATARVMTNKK"}
{"Strand": "UAGAAUAUGUGCUCAGAUCUGAGUUAUAUUUAGUUUUGGAAGGUAAGUUGAAGAGUACUUUUGAUCAGUUUAUGAUUCAGUUUAUGAUUUUAGUUUUUGCCUUCAUGUUA", "RBNS enrichment (R)": 0.351}
{"Strand": "ACGCCAAGCCUGGAUGCCAAGGAGCCCCUGGUGUCACAUGGGGCCUGGCCCACGCCCUCCCUCUCCCAGGCCCGAGAUGUGACCCACCAGUGCCUUCUGUCUGCUCGUUA", "RBNS enrichment (R)": 0.665}
{"Strand": "CUCAACUUUCCUAGGAAAGAGCCCACCUCGGAGAUAGCUACGGUUUUCUCUGGUGGAGAUGGUGAGGAUGAAGGCUGGAGAGUGAGGGAGGAGGCUCUGCUGGCCGCAGA", "RBNS enrichment (R)": 0.548}
{"Strand": "GGCCAGGGUGGUCUGCUUAGCCAGGAAAGGGCAAGUGCCUUCCCCUCGGCCACACUGCCCCUUGUGGCCUUCUCGGGACAUGUGGUAACUGACUUGCUCUCAGGCCCACC", "RBNS enrichment (R)": 0.278}
{"Strand": "UUUGCACUAGCUCUAAAGAAGAAUUUCUUCUGGUUUUAGAGAACUGAUUUUGUUUUAGCAUUAAACUGUUCAAGUUUUUGUACGUAGAUAUCUAGAUACUGCAGUCAGGU", "RBNS enrichment (R)": 0.805}
{"Strand": "GCUUAAGGAAUAUCCCUGUCUUCUGUCUUUUGGUUUUCGUUUGUUCGUCUUUUAUUUUCUUGUGGCAUUAUUAGGCAGGUAAGCUUGAUGUAGACCAUUGACUGACCCCA", "RBNS enrichment (R)": 1.14}
{"Strand": "AGCAUUUUUUAGGGAGAAAAAUAAAUAUAUGCUGUAGUGGCCACAAAUAGGCCUAUGAUUUAGCUGGCAGGCCAGGUUUUCUCAAGAGCAAAAUCACCCUCUGGCCCCUU", "RBNS enrichment (R)": 0.434}
{"Strand": "GGUCUAUAUUAGAAAAAGAAAACUGUCCUUUUGCUAAAGAAAAAUUAAAUGAAUUUUUAAGGCUGAAAUCUGUGGGUAAGAUGGAGUCUGGAGCUUUCCUCUUGGAACAG", "RBNS enrichment (R)": 0.462}
{"Strand": "GAAGUAGAAAAGAGUGCUGGACAUAGGAAGGGGGUGCUUGGUUUGAGGGGUUAAUGUGAGGCCUUUUUGAAAAAUGAAUAUUUUGAUAAAAAGAAUUCUUGUUUUAGCAC", "RBNS enrichment (R)": 1.06}
{"Strand": "AACUGGAACCAUUGGCAGCUGCACGCUCAUUACUACCCUCCGCUCCUGCGCUCUGCCACUGUCCGGAAAUUCAUGGUUGGCUACGAAAUGCUUGCUCAGGCUCAGAGGGA", "RBNS enrichment (R)": 1.96}
{"Strand": "CCUCUCCAUCUGCUGUGUUUGGACGCGUUCCUGCCCAGCCCCUUGCUGUCAUCCCCUCCCCCAACCUUGGCCACUUGAGUUUGUCCUCCAAGGGUAGGUGUCUCAUUUGU", "RBNS enrichment (R)": 0.697}
{"Strand": "UAUGUCCCUCAACCCCCGAAACAAGGCUUCUCUCAGCCUCCCCACCAGUGAUGGAUAACAGCUCCUAUUCUCAGCUGACCUGACUGAGCCAACCCAUGAACUCUUCACUC", "RBNS enrichment (R)": 0.321}
{"data": "Sample 4", "target": "Fragile X messenger ribonucleoprotein 1, C-terminal low-complexity region (Fmr1, Mus musculus, UniProt P35922)", "technique": "RNA Bind-n-Seq", "molecule type": "RNA", "matrix": "in vitro", "concentration": "200 nM", "notes": "whole 134-nt RNA, ends assumed", "added": "150 mM LiCl", "baseline": "input library", "direction": "higher = stronger binding", "each molecule": "7-deaza-guanosine replaces G", "all sequences stand within": "GGGAGUUCUACAGUCCGACGAUC … UGGAAUUCUCGGGUGUCAAGG"}
{"Strand": "GCCACCAUGCCCACCUAGUUUUUGCAUUUUUAGUGGAGGUGUGGUUUCACUGUGUUGGCCAGGCUGGUCUCUUAACUCCUGACCUCAGGU", "log2 enrichment": 0.441}
{"Strand": "UCAAGUCCUGUGCUACACAUCGUAUGUACCGAAUCGGUUUUUUUGGUGGUUUGGAAAGUAUUAUGUUACGCCGUUCGGAUCUGCACUUCC", "log2 enrichment": -1.52}
{"Strand": "CACAGACAGCACGCACCCACACAGACACAGAGGGAAGGGGUUGGGAUGGGGACAGGGUGCACAGCAGGGCGGGGUAGGACCCCAGCCCCU", "log2 enrichment": 0.00066}
{"Strand": "UCAAGUCCUGUGCUACACAUCGUAUGUACCGAAUCGGAGGAAAAAGGAAAAAGGAAAGUAUUAUGUUACGCCGUUCGGAUCUGCACUUCC", "log2 enrichment": -0.579}
{"Strand": "UGGCCCUGGUGGCAUGCGGGGAGGAAGAGGUGACCUCAUGGAUCGUGGUGGUCCCGGUGGAAUGUUCAGAGGUGGCCGUGGUGGAGACAG", "log2 enrichment": -0.13}
{"Strand": "UGUUGGGCUUCGAUCCCAGGUGGAUGAUGAUGCCUUCCUACAUGGACCCACGUAUCACGCCCACUCGGACCCCGGUGGACUUCUACCCCU", "log2 enrichment": -0.0444}
{"Strand": "UGAUGAUAGUAGCAGAGAAGAUGAACAUACACAUACUAACAGUGUCACGAACUCCAGUAGUAUUGUGGACCUGCCCGUUCACCAACUCUC", "log2 enrichment": -0.134}
{"Strand": "UCCUCAAGUCCUGUGCUACACAUCGUAUGUACCGAAUCGGAGGGGAGGAGGAAAGUAUUAUGUUACGCCGUUCGGAUCUGCACUUCCAGC", "log2 enrichment": -2.56}
{"Strand": "AGUCCUGUGCUACACAUCGUAUGUACCGAAUCGGGGAGGGGUUUUUUUGGGGUGGGGAAAGUAUUAUGUUACGCCGUUCGGAUCUGCACU", "log2 enrichment": 0.273}
{"Strand": "GCAGGAAGUAAAAACAAAUGAAAAUGCUUCGGAUAGUGGCAGGGGUGGGGGUUGCUAAGGAAAGGGUGGGAUGGGAGUGGGUAAAGAGUU", "log2 enrichment": 1.42}
{"Strand": "GCAGGAAGUAAAAACAAAUGGAAAUGCUUCGGAUAGUGGCAGAGGUGGGGGUUGCUAAGGAAAGGGUGGGAUGGGAGUGGGUAAAGAGUU", "log2 enrichment": 1.52}
{"note": "Repeated from above (sample 2):"}
{"Strand": "TACCACTA", "E-score": 0.0729}
{"Strand": "CAGTGGCA", "E-score": -0.106}
{"Strand": "GAGATGAC", "E-score": -0.0725}
{"Strand": "CGAGTCAC", "E-score": -0.165}
{"Strand": "TCGTTTAA", "E-score": 0.14}
{"Strand": "GCCTTAGA", "E-score": -0.186}
{"Strand": "CAATGGTG", "E-score": -0.174}
{"Strand": "ATCAATAC", "E-score": 0.271}
{"Strand": "ATCCGTCC", "E-score": -0.0673}
{"Strand": "TGGACCCA", "E-score": -0.0751}
